# Assay results pooled from the literature.
# A part holds a random share of what one study measured. Substitutions count along the parent as printed.

# Block 1
# Target: Histone acetyltransferase KAT6A, both winged helices, GST fusion (KAT6A, Homo sapiens, UniProt Q92794, residues 1-181)
# Technique: protein binding microarray
# Molecule type: double-stranded DNA, one strand shown
# Medium: in vitro
# Concentration: not given
# Setting: 8-mer, flanks averaged, mean of 2 arrays, mostly near background
# Relative to: not given
# Direction: higher = stronger binding
# Residues (chain): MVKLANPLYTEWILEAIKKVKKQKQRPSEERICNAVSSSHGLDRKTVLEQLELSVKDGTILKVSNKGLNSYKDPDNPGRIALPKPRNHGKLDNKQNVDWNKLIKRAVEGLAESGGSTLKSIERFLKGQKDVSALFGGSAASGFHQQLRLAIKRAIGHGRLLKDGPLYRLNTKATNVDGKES
Sequence,E-score
AGGTGATA,-0.162
CCCGTTAG,0.267
AGTATCCG,0.0907
ACTATGAC,-0.0159
ACTGAAGG,-0.108
CTGTCACC,-0.127
AATTCTCT,-0.00243
ACGCTTTC,0.135
ATTAGGAA,-0.0892
GCCCGCTA,0.272
ACCTCCCA,-0.0689
GGACGGAA,0.178
ATCTTTAC,-0.0165
CATTGTAC,0.0213
ATTTCACC,-0.114
ACAAAGCA,-0.0591
GTCACCAA,-0.114
AAAGATGA,-0.191
CAGCTCCA,-0.306
GTAGCCCA,-0.155
GGTGCACC,-0.0783
GTGGCAAC,-0.0334
GCCGGTCA,0.138

# Block 2
# Target: CCND3, cyclin fold, Cln2 fusion (human)
# Technique: yeast growth competition, sequencing
# Medium: yeast
# Setting: weak parent motif
# Relative to: not given
# Direction: higher = stronger binding
# Starting sequence: CDKN1B docking peptide (human); PSACRNLFGPVDH
Variant,normalised enrichment score
PSACRNLFGKVDH [P10K],0.12
PSACRNLFGPVDI [H13I],0.119
PSACRNLFGPVWH [D12W],0.149
PSACRNLFGPVDN [H13N],0.162
PSACRNLFGPVNH [D12N],0.188
PSACRNLFGPSDH [V11S],0.113
PSMCRNLFGPVDH [A3M],0.143
PSATRNLFGPVDH [C4T],0.0887
PSACRNLFGPVYH [D12Y],0.189
PSACRNLFGPYDH [V11Y],0.0984
PSAPRNLFGPVDH [C4P],0.135
PSACRNLFGPFDH [V11F],0.09
PAACRNLFGPVDH [S2A],0.13
PSACRNLFGPVMH [D12M],0.14
PTACRNLFGPVDH [S2T],0.134
PSWCRNLFGPVDH [A3W],0.145
PSACRNLFGPVDW [H13W],0.178
PSALRNLFGPVDH [C4L],0.11
PSACRNLFGPHDH [V11H],0.182
PSACRNLFGRVDH [P10R],0.162
LSACRNLFGPVDH [P1L],0.139
PSACRNLFVPVDH [G9V],0.167
PSVCRNLFGPVDH [A3V],0.15
PSACRNLFGEVDH [P10E],0.102
PSACNNLFGPVDH [R5N],0.169

# Block 3
# Molecule: PhoQ, residues 284 288 289 292 302 303 SNSSNI
# Technique: Sort-seq
# Refers to: YFP reporter
# Medium: E. coli
# Setting: PhoQ-PhoP variant library
# Added: 10 µM Mg2+
# Relative to: high Mg2+ state
# Direction: higher = stronger signaling
target,fold induction
"PhoP, residues 12 14 15 18 19 NFFVT (Escherichia coli, UniProt P23836)",3.68
"PhoP, residues 12 14 15 18 19 TPWTL (Escherichia coli, UniProt P23836)",1.24
"PhoP, residues 12 14 15 18 19 VGHWL (Escherichia coli, UniProt P23836)",16.1
"PhoP, residues 12 14 15 18 19 LHHYF (Escherichia coli, UniProt P23836)",9

# Block 4
# Target: ABI1, truncated, D143A, DHFR fusion (Arabidopsis thaliana)
# Technique: DHFR PCA, deep sequencing
# Medium: yeast
# Setting: methotrexate growth selection, single substitutions
# Added: (+)-ABA 0 µM
# Relative to: wild-type fitted maximum
# Direction: higher = stronger binding
# Starting sequence: PYL1, truncated, DHFR fusion (Arabidopsis thaliana); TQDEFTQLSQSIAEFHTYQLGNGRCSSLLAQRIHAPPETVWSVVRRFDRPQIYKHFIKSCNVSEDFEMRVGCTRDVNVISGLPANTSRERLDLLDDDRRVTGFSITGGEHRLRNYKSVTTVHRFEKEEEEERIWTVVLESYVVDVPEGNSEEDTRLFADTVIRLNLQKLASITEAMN; partner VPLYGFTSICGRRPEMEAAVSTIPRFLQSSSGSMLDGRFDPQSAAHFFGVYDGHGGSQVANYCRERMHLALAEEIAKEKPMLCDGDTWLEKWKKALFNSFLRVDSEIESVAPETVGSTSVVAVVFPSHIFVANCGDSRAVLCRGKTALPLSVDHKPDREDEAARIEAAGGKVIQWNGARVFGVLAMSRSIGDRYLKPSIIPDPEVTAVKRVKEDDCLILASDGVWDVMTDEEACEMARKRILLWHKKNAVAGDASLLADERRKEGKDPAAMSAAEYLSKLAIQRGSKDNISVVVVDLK
Variant,relative binding score
H110M,26.7%
E67G,1.15%
N149G,61.1%
G107L,-1.96%
C60R,6.49%
V70I,21.5%
L29R,-0.989%
R49P,3.44%
S140C,3.04%
V78W,75.9%
D75A,11.7%
S63I,5.12%
V40L,-2.24%
Y141K,-5.03%
A35Q,0.851%
S80L,39.3%
R45Q,-2.43%
K116A,8.08%
I105G,0.489%
Q167M,19.6%
D153V,-1.08%
L28P,-0.507%
F66W,6.71%
G102M,1.25%

# Block 5
# Target: Ras GTPase-activating protein-binding protein 1, C-terminal RGG region (G3BP1, Homo sapiens, UniProt Q13283)
# Sequence of UniProt Q13283 (whole entry, looked up): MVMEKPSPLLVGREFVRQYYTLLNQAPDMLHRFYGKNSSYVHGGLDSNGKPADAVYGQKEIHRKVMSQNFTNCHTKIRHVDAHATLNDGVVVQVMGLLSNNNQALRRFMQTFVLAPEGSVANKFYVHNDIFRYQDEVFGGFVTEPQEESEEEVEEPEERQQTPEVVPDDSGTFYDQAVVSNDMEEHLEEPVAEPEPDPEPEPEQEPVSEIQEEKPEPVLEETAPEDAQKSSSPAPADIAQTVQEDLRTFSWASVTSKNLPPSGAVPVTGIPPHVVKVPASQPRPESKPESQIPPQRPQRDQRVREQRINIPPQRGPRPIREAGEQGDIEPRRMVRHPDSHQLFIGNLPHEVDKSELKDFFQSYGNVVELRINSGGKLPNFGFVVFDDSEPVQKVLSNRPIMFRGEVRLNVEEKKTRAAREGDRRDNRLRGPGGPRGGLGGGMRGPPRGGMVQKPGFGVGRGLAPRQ
# Technique: RNA Bind-n-Seq
# Molecule type: RNA
# Medium: in vitro
# Concentration: 1 µM
# Setting: whole 134-nt RNA, ends assumed
# Added: 150 mM KCl
# Relative to: input library
# Direction: higher = stronger binding
# All sequences stand within: GGGAGUUCUACAGUCCGACGAUC … UGGAAUUCUCGGGUGUCAAGG
Sequence,log2 enrichment
GCAGGAAGUAAAAACAGAUGGAAAUGCUUCGGAUAGUGGCAGGGGUGGGGGUUGCUAAGGAAAGGGUGGGAUGGGAGUGGGUAAAGAGUU,1.6
UAACUUUAGAGCAGGAUCUGAUGGAUAUGGCAGUGGACGUGGAUUUGGGGAUGGCUAUAAUGGGUAUGGAGGAGGACCUGGAGGUGGCAA,-0.908
UCCUGUGCUACACAUCGUAUGUACCGAAUCGGGCCCCCCGGGCCCCCCGGGCCCCCCGGGAAAGUAUUAUGUUACGCCGUUCGGAUCUGC,-1.13
UCAAGUCCUGUGCUACACAUCGUAUGUACCGAAUCGGGGUUGGGGUUGGUUGGGAAAGUAUUAUGUUACGCCGUUCGGAUCUGCACUUCC,0.0469
AGUCCUGUGCUACACAUCGUAUGUACCGAAUCGGGAAAAAAAGGGAGGGAAAAAGGGAAAGUAUUAUGUUACGCCGUUCGGAUCUGCACU,0.711
AAGUCCUGUGCUACACAUCGUAUGUACCGAAUCGGUUUUUGGGUUUUUGGUUUUUGGAAAGUAUUAUGUUACGCCGUUCGGAUCUGCACU,-1.48
UGGCCCUGGUGGCAUGAGGGGAGGAAGAGGUGGCCUCAUGGAUCGUGGUGGUCCCGGUGGAAUGUUCAGAGGUGGCCGUGGUGGAGACAG,1.99
UUUUACUUCUCCGCCAGGUGCUGUGCUCCAUCAUCGCCGGUACCUUGCACUAUCUCUACCUGGCCACCUUGACCUGGAUGCUGCUGGAGG,0.386
CAAGUCCUGUGCUACACAUCGUAUGUACCGAAUCGGUUUGGAAAGGUUUUUUUGGAAAGUAUUAUGUUACGCCGUUCGGAUCUGCACUUC,-1.66

# Some of these lines once more (block 2):
Variant,normalised enrichment score
PSACRNLFGPYDH [V11Y],0.0984
PSACRNLFGPVMH [D12M],0.14
PSACRNLFGPVWH [D12W],0.149
PSACRNLFGPVDI [H13I],0.119
PAACRNLFGPVDH [S2A],0.13
PSACRNLFVPVDH [G9V],0.167
PSWCRNLFGPVDH [A3W],0.145
PSACRNLFGPHDH [V11H],0.182
PSACRNLFGKVDH [P10K],0.12
